Results collected from several papers.
Lines come from different studies, so protocols differ. ± marks the error that the study gave.

| SMILES | test | test system | conditions | tissue uptake |
| --- | --- | --- | --- | --- |
| Cc1ccccc1-c1ccc(-c2nc(-c3ccc(CN(C)CCCC(=O)O)c([18F])c3)no2)cc1C(F)(F)F |  | Sprague Dawley rats, male, fat | 5 min | 0.09 ± 0.01 %ID/g |
| C[C@H](O)[C@@H](NC(=O)[C@H]1CCCN1C(=O)[C@@H](CCCCN)NC(=O)[C@@H](CO)NC(=O)[C@@H](Cc1ccc(O)cc1)NC(=O)[C@@H](CC(N)=O)NC(=O)CCOCCOCCOCCNC(=O)CN1CCN(CC(=O)O)CCN(CC(=O)O)CCN(CC(=O)O)CC1)C(=O)N[C@H](CC(=O)O)C(=O)N[C@H](CCCNC(=N)N)C(=O)N[C@H](CCC(N)=O)C(=O)N[C@H](Cc1ccc(O)cc1)C(=O)N[C@H](Cc1c[nH]cn1)C(=O)N[C@H](Cc1ccccc1)C(N)=O [copper-64 labelled] |  | C57BL/6J mice, muscle | intravenous, 1.85 MBq, 1.333 h, radiolabelled | 0.15 ± 0.11 %ID/g |
| CN1Cc2cc(Cl)ccc2-n2c(nnc2C2CCN(c3cccc([18F])n3)CC2)C1 |  | C57BL/6 mouse male, muscle | intravenous, 3.7 MBq, 1 min | 3.63 ± 1.46 %ID/g |
| CCCC[C@H]1C(=O)N(C)[C@@H](CCCC)C(=O)N[C@@H](CCCNC(=O)CN2CCN(CC(=O)O)CCN(CC(=O)O)CCN(CC(=O)O)CC2)C(=O)N[C@H](C(=O)NCC(N)=O)CSCC(=O)N[C@@H](Cc2ccc(O)cc2)C(=O)N(C)[C@@H](C)C(=O)N[C@@H](CC(N)=O)C(=O)N2CCC[C@H]2C(=O)N[C@@H](Cc2c[nH]cn2)C(=O)N[C@@H](CC(C)C)C(=O)N(C)CC(=O)N[C@@H](Cc2c[nH]c3ccccc23)C(=O)N[C@@H](CO)C(=O)N[C@@H](Cc2c[nH]c3ccccc23)C(=O)N1C [gallium-68 labelled] |  | NOD/SCID mice, CHO-hPD-L1 xenograft, liver | 60 min, together with: blocking agent 50 µg co-injected | 16.6 ± 5.65 %ID/g |
| CC[C@H](C)[C@H](NC(=O)[C@H](CCCNC(=N)N)NC(=O)[C@H](CCCCN)NC(=O)[C@H](Cc1ccc(O)cc1)NC(=O)[C@H](CC(=O)O)NC(=O)[C@H](C)NC(=O)CNC(=O)CCOCCOCCOCCNC(=O)CN1CCN(CC(=O)O)CCN(CC(=O)O)CCN(CC(=O)O)CC1)C(=O)N[C@H](C(=O)N[C@H](C(=O)N[C@@H](CCCCN)C(=O)N[C@H](C(=O)N[C@@H](CC(N)=O)C(N)=O)C(C)C)C(C)C)[C@@H](C)O [copper-64 labelled] | ex vivo gamma counting | C57BL/6J male mice, B16-F10 tumour, spleen | intravenous, 1.85 MBq, 40 min | 0.68 ± 0.129 %ID/g |
| CSCC[C@H](NC(=O)CNC(=O)[C@H](CCCCN)NC(=O)[C@H](CC(C)C)NC(=O)[C@@H]1CCCN1C(=O)[C@H](CO)NC(=O)[C@H](Cc1c[nH]cn1)NC(=O)[C@H](Cc1c[nH]c2ccccc12)NC(=O)[C@H](CCCNC(=N)N)NC(=O)[C@H](CC(C)C)NC(=O)[C@H](CCCNC(=N)N)NC(=O)[C@H](Cc1c[nH]c2ccccc12)NC(=O)[C@H](CS)NC(=O)CCCCCNC(=O)CN1CCN(CC(=O)O)CCN(CC(=O)O)CCN(CC(=O)O)CC1)C(=O)O [copper-64 labelled] | ex vivo biodistribution | C57BL/6J mice bearing B16-F10 tumours, lung | intravenous, 1.85 MBq, 0.5 h | 6.05 %ID/g |
| CC(C)C[C@@H](NC(=O)[C@@H](CCCNC(=N)N)NC(=O)[C@@H](Cc1c[nH]cn1)NC(=O)[C@@H](Cc1c[nH]c2ccccc12)NC(=O)[C@@H](Cc1c[nH]cn1)NC(=O)[C@@H](Cc1ccccc1)NC(=O)[C@H](NC(=O)[C@@H](Cc1ccc(O)cc1)NC(=O)CNC(=O)CNC(=O)CCOCCOCCOCCNC(=O)CN1CCN(CC(=O)O)CCN(CC(=O)O)CC1)[C@H](C)O)C(=O)N[C@H](CC(N)=O)C(=O)N1CCC[C@@H]1C(=O)O [gallium-68 labelled] |  | C57BL/6 mice, male, lung | intravenous, 1.85 MBq, 60 min, together with: blocking antibody | 1.08 ± 0.21 %ID/g |
| CCOP(=O)(CNC(=O)CN1CCN(CC(=O)NCP(=O)(OCC)OCC)CCN(CC(=O)NCP(=O)(OCC)OCC)CCN(CC(=O)NCP(=O)(OCC)OCC)CC1)OCC.[177Lu+3] |  | Sprague-Dawley rat, bone | intravenous (tail vein), dose not given, 2 h | 0.053 ± 0.019 % injected dose/g |
| CC[C@H](C)[C@H](NC(=O)[C@H](CCCCN)NC(=O)CNC(=O)[C@H](CC(C)C)NC(=O)[C@H](Cc1ccccc1)NC(=O)[C@H](CCCCN)NC(=O)[C@H](CO)NC(=O)[C@H](Cc1ccccc1)NC(=O)[C@H](Cc1c[nH]c2ccccc12)NC(=O)[C@H](CCC(N)=O)NC(=O)[C@@H](NC(=O)[C@H](Cc1ccccc1)NC(=O)CCCCCNC(=O)CN1CCN(CC(=O)O)CCN(CC(=O)O)CCN(CC(=O)O)CC1)C(C)C)C(=O)N[C@@H](CCC(=O)O)C(=O)N1CCC[C@H]1C(=O)N[C@@H](CC(=O)O)C(=O)N[C@H](C(=O)N[C@@H](CO)C(=O)N[C@@H](CCC(N)=O)C(=O)N[C@H](C(=O)N[C@@H](CCC(N)=O)C(=O)N[C@@H](CC(=O)O)C(=O)N1CCC[C@H]1C(=O)N[C@@H](CC(N)=O)C(=O)N[C@@H](CC(=O)O)C(=O)N[C@@H](CCC(N)=O)C(=O)N[C@@H](Cc1ccc(O)cc1)C(=O)N[C@@H](CCC(=O)O)C(=O)N1CCC[C@H]1C(=O)N[C@@H](Cc1ccccc1)C(=O)O)C(C)C)C(C)C [copper-64 labelled] |  | BALB/c mice, male, CT26 tumour-bearing, muscle | 2 h, anti-PD1 plus anti-CTLA4 treated | 0.35 ± 0.1 %ID/g |
